Assay results gathered from unrelated publications.
Compare with care: the assays were run in different laboratories. ± gives the spread as reported.
CXCR4: C-X-C chemokine receptor type 4 (CXCR4, Homo sapiens, UniProt P61073)
H2-K1 29: H-2 class I histocompatibility antigen, K-D alpha chain, 29 (H2-K1, Mus musculus, UniProt P01902)
UniProt P01902, sequence (whole entry, looked up): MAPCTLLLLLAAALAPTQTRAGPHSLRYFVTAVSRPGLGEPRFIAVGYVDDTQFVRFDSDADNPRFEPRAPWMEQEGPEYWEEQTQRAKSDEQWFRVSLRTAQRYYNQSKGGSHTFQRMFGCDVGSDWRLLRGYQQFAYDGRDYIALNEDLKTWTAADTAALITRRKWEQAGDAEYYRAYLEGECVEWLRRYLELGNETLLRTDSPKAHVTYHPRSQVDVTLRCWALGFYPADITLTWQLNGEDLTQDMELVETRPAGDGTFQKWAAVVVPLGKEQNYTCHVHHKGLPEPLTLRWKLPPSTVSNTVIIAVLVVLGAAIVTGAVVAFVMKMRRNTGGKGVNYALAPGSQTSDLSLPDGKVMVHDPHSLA
UniProt P54941, sequence (whole entry, looked up): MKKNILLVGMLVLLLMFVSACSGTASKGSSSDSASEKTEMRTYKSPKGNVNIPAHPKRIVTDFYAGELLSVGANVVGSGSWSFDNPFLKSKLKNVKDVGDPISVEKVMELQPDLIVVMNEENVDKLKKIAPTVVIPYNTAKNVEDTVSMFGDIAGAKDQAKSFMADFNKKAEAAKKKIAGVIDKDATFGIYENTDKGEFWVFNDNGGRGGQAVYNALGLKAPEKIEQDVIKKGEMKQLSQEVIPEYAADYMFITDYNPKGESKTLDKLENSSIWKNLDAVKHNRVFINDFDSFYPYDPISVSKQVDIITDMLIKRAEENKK
UniProt Q15116, sequence (whole entry, looked up): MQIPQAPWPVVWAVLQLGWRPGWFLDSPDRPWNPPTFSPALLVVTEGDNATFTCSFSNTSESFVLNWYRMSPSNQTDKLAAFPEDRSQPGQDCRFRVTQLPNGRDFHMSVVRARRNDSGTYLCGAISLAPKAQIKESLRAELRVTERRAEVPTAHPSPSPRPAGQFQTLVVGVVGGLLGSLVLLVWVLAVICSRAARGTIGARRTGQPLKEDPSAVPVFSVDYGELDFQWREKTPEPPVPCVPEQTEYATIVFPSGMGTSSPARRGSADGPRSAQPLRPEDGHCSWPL
UniProt P15090, sequence (whole entry, looked up): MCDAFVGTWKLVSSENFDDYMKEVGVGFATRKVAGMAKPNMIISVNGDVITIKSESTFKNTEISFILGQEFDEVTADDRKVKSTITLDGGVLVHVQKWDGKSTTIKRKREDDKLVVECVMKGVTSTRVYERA

With `CC[C@H](C)[C@H](NC(=O)[C@H](CCC(=O)O)NC(=O)[C@H](CCCCN)NC(=O)[C@H](CC(C)C)NC(=O)[C@H](CCCCNC(=O)[C@H](CC(C)C)NC(=O)[C@H](CCCNC(=N)N)NC(=O)[C@H](Cc1c[nH]cn1)NC(=O)[C@H](Cc1c[nH]cn1)NC(=O)[C@H](Cc1c[nH]cn1)NC(=O)[C@@H](N)CO)NC(=O)[C@H](CC(C)C)NC(=O)[C@H](CCCNC(=N)N)NC(=O)[C@H](Cc1c[nH]cn1)NC(=O)[C@H](Cc1c[nH]cn1)NC(=O)[C@H](Cc1c[nH]cn1)NC(=O)[C@@H](N)CO)C(=O)N[C@@H](C)C(=O)N[C@@H](CC(N)=O)C(=O)N[C@@H](CO)C(=O)N1CCC[C@H]1C(=O)N[C@H](C(=O)N[C@@H](CCC(N)=O)C(=O)N[C@@H](Cc1ccccc1)C(=O)N[C@@H](Cc1c[nH]c2ccccc12)C(=O)N[C@@H](CCCNC(=N)N)C(=O)N[C@@H](CCSC)C(=O)N[C@H](C(=O)N[C@@H](C)C(=O)N[C@@H](CCCNC(=N)N)C(=O)N[C@@H](CC(N)=O)C(=O)N[C@H](C(=O)N[C@@H](CC(C)C)C(=O)NCC(=O)N[C@@H](CC(N)=O)C(=O)NCC(=O)N[C@@H](C)C(=O)N[C@@H](CCCCN)C(=O)N[C@@H](CCC(N)=O)C(=O)N[C@@H](CO)C(=O)N[C@@H](CC(C)C)C(=O)N[C@@H](CC(N)=O)C(=O)N[C@H](C(=O)N[C@@H](CCC(=O)O)C(=O)N[C@@H](Cc1c[nH]cn1)C(=O)N[C@@H](C)C(=O)O)[C@@H](C)CC)[C@@H](C)O)C(C)C)[C@@H](C)O` the Kd was 11.9 nM (PDCD1 (Homo sapiens, UniProt Q15116); binding, SPR; pH 7.4).
`O=C(Nn1c(-c2cccc(Cl)c2)nc2ccccc2c1=O)c1ccccc1F` gave an EC50 of 1150 ± 110 nM (TRPM channel TRPM_PZQ (Schistosoma mansoni, UniProt A0A5K4F0X5)).
With `CCOc1ccccc1-c1nnc2n1N=C(c1ccc(N3CCCC3=O)cc1)CS2` the EC50 was 50 nM (CXCR4; β-arrestin recruitment, agonist).
With `CSCC[C@H](NC(=O)[C@H](Cc1ccc(O)cc1)NC(=O)[C@@H](N)CO)C(=O)N[C@@H](CC(C)C)C(=O)N[C@@H](CCC(N)=O)C(=O)N[C@@H](C)C(=O)N[C@@H](CC(C)C)C(=O)N[C@@H](CS)C(=O)O` the IC50 was 14900 nM (H2-K1 29; binding, competitor, radioligand competition; purified MHC, mutant peptide, with: radiolabeled standard peptide).
With `O=C(O)CCCOc1ccc(F)cc1-c1cc(-c2ccccc2C(F)(F)F)n(-c2ccccc2)n1` the Kd was 238 nM (FABP4 (Homo sapiens, UniProt P15090); ligand displacement, fluorescence).
The Ki of `OC[C@H]1[C@@H](O)[C@@H](O)CN1Cc1ccc(I)cc1` is reported as 50000 nM (Golgi alpha-mannosidase IIb (Drosophila melanogaster, UniProt Q9VF33); Dixon plot; with: pNP-Man 0.5 to 4 mM).
With `O=C1CCC(=O)N([O-])CCCCCNC(=O)CCC(=O)N([O-])CCCCCNC(=O)CCC(=O)N([O-])CCCCCN1.[Fe+3]` the Kd was 30 ± 9 nM (Iron(3+)-hydroxamate-binding protein YxeB (yxeB, Bacillus subtilis, UniProt P54941); binding, Trp fluorescence quenching; pH 7.4, with: yxeB 100 nM).
`COc1ccccc1-c1nnc2n1N=C(c1ccc(N3CCOCC3)cc1)CS2` gave an EC50 of 7810 nM (CXCR4; β-arrestin recruitment, agonist).
`CC[C@H](C)[C@H](NC(=O)[C@H](CS)NC(=O)[C@H](CC(C)C)NC(=O)[C@H](C)NC(=O)[C@H](CCC(N)=O)NC(=O)[C@H](CC(C)C)NC(=O)[C@H](CCSC)NC(=O)[C@H](Cc1ccc(O)cc1)NC(=O)[C@@H](N)CO)C(=O)O` has an IC50 of 82 nM (H2-K1 29; binding, competitor, radioligand competition; purified MHC, mutant peptide, with: radiolabeled standard peptide).

A few entries again:
With `CCOc1ccccc1-c1nnc2n1N=C(c1ccc(N3CCCC3=O)cc1)CS2` the EC50 was 50 nM (CXCR4; β-arrestin recruitment, agonist).
